Results from different studies.
Compare with care: the assays were run in different laboratories.
UCHL1: Ubiquitin carboxyl-terminal hydrolase isozyme L1 (UCHL1, Homo sapiens, UniProt P09936)
UniProt P09936, sequence (whole entry, looked up): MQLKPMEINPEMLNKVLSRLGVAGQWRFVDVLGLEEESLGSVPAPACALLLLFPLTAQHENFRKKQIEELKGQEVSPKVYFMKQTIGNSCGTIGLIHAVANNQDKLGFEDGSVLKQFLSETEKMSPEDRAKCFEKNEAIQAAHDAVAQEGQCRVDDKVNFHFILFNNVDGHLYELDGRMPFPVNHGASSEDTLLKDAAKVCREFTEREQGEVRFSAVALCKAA

`COc1cc(C=C(C#N)C(=O)Nc2ccc(F)cc2)cc(Cl)c1O` has a labelling of 12.4% (UCHL1; covalent, intact protein LC-MS; 12.5 µM).
`C=CC(=O)N(C)CCOc1c(N)ncnc1-c1cc(F)cc(NC(=O)c2ccc(C3CC3)cc2F)c1C` gave a Cmax of 40.9 ng/mL (human, whole blood; oral, 25 mg once daily, day 1).
With `C[C@@H](Nc1cc(F)cc(F)c1)c1cc(C(=O)N(C)C)cc2c(=O)cc(N3CCOCC3)oc12` the Cmax was 982 ng/mL (human; oral, 120 mg twice daily, vistusertib alone, geometric LSM).
The Cmax of `Cl.[2H]C([2H])([2H])CC(=O)c1cnc(NC(=O)C2CC2)cc1Nc1cccc(-c2ncn(C([2H])([2H])[2H])n2)c1OC` is reported as 183 ng/mL (geometric mean; human; oral, 20 mg once daily, day 7, fasted, liquid, multiple dose).
`CN1C(=O)[C@@H](NC(=O)c2nnc(Cc3ccccc3)[nH]2)COc2cccnc21` has a Cmax of 6120 ng/mL (healthy human, fasted, plasma; oral, 800 mg single dose, geometric mean).
`CC(C)[C@H](N)C(=O)NCCCS(=O)(=O)O` has a Cmax of 5550 ng/mL (human both sexes, plasma; oral, 171 mg once daily, day 1, fasted capsule).
`O=C(O)CCC(=O)O.[2H]C([2H])([2H])Oc1cc(C)c2[nH]ccc2c1CN1CC[C@@H](C2CC2)C[C@H]1c1ccc(C(=O)O)cc1` has a Cmax of 2560 ng/mL (human, plasma; 50 mg twice daily, day 10, multiple ascending dose, geometric mean).
`COc1ncc(-c2nc3c(n2C(C)C)[C@H](c2ccc(Cl)cc2)N(c2cc(Cl)cn(C)c2=O)C3=O)c(OC)n1` gave a Cmax of 1430 ng/mL (LC-MS/MS, noncompartmental; human, plasma; oral, 150 mg, C2D1, high-dose, geometric mean).
`C[C@@H]1CCO[C@H]2Cn3cc(C(=O)NCc4ccc(F)cc4F)c(=O)c(O)c3C(=O)N12` has a Cmax of 6250 ng/mL (human paediatric patients, weight sample B to under sample C kg, plasma; oral, 30 mg dispersible tablet, steady state, geometric mean, population PK post-hoc, N 5).
The Cmax of `CCN1CCN(Cc2ccc(Nc3ncc(F)c(-c4cc(F)c5nc6n(c5c4)[C@H](C)CCC6)n3)nc2)CC1` is reported as 92 ng/mL (human, plasma; 50 mg multiple dosing, mean).
`N#CC(=Cc1ccccc1Cl)C(=O)Nc1ccc(Cl)cc1` gave a labelling of 15.5% (UCHL1; covalent, intact protein LC-MS; 12.5 µM).
`CCn1cc(C(=O)N2CCOCC2)c(=O)c2cc(NC3Cc4ccccc4C3)cnc21` has a Cmax of 3080 ng/mL (human, fed; oral suspension, 2000 mg/day twice daily, day 8, arithmetic mean).
`CCOc1c([C@H](C)n2nc(C)c3c(N)ncnc32)cc(Cl)c(F)c1[C@@H]1CNC(=O)C1` gave a Cmax of 1620 nM (human patients, plasma; oral, 20 mg, day 1).

A few entries again:
`O=C(O)CCC(=O)O.[2H]C([2H])([2H])Oc1cc(C)c2[nH]ccc2c1CN1CC[C@@H](C2CC2)C[C@H]1c1ccc(C(=O)O)cc1` has a Cmax of 2560 ng/mL (human, plasma; 50 mg twice daily, day 10, multiple ascending dose, geometric mean).
